Experimental data collected from several papers.
Compare with care: the assays were run in different laboratories. “And” joins repeats or separate records; there may be more than shown. ± gives the spread as reported.
Chain of UniProt P0A8V2 (whole entry, looked up): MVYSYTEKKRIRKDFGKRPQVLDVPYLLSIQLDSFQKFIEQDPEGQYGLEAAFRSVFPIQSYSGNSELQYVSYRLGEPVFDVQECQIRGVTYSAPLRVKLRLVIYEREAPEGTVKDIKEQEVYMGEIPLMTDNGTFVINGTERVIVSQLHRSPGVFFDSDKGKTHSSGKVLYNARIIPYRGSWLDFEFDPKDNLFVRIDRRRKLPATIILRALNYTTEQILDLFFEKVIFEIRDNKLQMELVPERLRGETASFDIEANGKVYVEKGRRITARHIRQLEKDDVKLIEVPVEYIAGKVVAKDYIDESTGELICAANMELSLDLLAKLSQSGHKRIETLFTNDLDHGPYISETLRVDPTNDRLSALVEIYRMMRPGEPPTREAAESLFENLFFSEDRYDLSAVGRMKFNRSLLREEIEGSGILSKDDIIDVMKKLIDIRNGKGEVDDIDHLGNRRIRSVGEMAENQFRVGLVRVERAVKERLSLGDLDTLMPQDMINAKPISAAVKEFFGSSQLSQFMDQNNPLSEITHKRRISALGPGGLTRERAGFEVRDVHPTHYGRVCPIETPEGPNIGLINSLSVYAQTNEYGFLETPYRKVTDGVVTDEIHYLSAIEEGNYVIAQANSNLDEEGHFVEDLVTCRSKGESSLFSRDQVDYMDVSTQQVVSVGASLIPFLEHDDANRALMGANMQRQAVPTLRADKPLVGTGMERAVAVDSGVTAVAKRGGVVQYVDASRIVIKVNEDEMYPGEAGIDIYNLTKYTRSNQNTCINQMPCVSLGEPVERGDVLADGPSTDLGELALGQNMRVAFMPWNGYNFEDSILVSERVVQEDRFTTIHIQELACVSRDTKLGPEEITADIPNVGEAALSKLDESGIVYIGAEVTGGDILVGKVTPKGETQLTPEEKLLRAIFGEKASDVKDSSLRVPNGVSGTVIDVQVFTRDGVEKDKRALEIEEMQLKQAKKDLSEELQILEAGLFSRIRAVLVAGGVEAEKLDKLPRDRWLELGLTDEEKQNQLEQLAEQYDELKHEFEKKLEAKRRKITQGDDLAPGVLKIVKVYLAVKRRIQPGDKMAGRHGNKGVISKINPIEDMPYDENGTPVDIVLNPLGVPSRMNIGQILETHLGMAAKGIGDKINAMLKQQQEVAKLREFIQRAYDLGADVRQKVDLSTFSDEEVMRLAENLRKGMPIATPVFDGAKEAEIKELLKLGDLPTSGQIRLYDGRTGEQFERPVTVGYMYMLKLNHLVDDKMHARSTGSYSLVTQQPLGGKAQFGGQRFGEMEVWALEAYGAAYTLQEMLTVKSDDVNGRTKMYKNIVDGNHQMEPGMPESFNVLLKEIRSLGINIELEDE
Chain of UniProt P0A8T7 (whole entry, looked up): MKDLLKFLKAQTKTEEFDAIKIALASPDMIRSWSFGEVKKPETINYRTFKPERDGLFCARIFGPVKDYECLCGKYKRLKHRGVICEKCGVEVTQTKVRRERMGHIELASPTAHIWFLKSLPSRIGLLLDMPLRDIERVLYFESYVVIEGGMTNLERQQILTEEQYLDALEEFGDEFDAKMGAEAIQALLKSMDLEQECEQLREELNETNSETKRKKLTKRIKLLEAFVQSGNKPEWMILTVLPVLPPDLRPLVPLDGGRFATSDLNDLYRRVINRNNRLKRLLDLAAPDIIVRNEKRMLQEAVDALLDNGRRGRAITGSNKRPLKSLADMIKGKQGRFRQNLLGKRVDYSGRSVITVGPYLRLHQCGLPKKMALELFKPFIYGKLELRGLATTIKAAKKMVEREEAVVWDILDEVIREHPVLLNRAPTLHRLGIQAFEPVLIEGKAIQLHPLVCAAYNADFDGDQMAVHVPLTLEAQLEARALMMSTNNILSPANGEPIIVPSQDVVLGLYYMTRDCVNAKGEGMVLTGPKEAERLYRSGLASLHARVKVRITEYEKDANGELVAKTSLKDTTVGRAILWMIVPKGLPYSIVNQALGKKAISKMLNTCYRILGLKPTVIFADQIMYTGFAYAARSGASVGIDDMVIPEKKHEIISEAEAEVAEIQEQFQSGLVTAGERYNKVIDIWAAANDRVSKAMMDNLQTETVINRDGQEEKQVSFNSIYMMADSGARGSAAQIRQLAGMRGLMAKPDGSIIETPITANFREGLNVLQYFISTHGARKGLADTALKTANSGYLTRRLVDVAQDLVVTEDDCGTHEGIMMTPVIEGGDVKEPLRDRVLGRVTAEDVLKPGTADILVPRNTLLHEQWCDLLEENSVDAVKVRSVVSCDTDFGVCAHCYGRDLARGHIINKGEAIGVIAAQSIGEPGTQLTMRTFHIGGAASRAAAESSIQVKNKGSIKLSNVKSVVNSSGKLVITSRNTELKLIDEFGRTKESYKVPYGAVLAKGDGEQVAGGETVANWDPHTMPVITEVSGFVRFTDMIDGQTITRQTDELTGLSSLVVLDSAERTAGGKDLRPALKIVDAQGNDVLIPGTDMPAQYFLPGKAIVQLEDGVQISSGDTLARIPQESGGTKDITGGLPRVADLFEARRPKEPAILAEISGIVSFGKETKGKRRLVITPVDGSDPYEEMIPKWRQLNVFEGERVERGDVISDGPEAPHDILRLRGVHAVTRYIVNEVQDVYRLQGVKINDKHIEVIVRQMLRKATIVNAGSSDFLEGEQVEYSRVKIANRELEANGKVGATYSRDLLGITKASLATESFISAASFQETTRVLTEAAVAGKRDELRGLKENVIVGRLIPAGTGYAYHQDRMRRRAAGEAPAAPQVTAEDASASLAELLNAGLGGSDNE

SMILES	target or system	assay	test system	setting	how to read	endpoint	result
O=C1Nc2ccccc2/C1=C1\Nc2ccccc2\C1=N/O	SARS-CoV-2 Omicron	viral replication, cell-based	–	–	–	IC50	9.76 µM
CCOC(=O)C1=C[C@@H](OC(CC)CC)[C@H](NC(C)=O)[C@@H](N)C1	influenza A virus H7N9	viral replication	–	–	–	IC50	0.0137 µM
COc1cc2c(OCCCN3CCOCC3)c3c(c(-c4ccc5c(c4)OCO5)c2cc1OC)C(=O)OC3	VSV pseudotyped with Marburg virus GP	viral entry, refers to: GFP	–	–	–	IC50	0.135 ± 0.0114 µM
Cc1ccc(C(=O)Nc2ccc(S(=O)(=O)O)c3cc(S(=O)(=O)O)cc(S(=O)(=O)O)c23)cc1NC(=O)c1cccc(NC(=O)Nc2cccc(C(=O)Nc3cc(C(=O)Nc4ccc(S(=O)(=O)O)c5cc(S(=O)(=O)O)cc(S(=O)(=O)O)c45)ccc3C)c2)c1	Human immunodeficiency virus 1	viral entry, inhibitor	Calu-3	pseudovirus	–	IC50	11.9 µM
CC(C)(C)[C@H](NC(=O)C(F)(F)F)C(=O)N1C[C@H]2[C@@H]([C@H]1C(=O)N[C@H](C#N)C[C@@H]1CCNC1=O)C2(C)C	–	–	human, fasted	oral, 150 mg single dose, 28 days, no ritonavir	–	participants with serious adverse events	0%
CC(C)CNC(=O)[C@@H](N)Cc1ccc(OP2(=O)CO[C@@H](Cn3cnc4c(N)ncnc43)CO2)cc1 (stereo partly drawn)	vaccinia virus	viral replication	–	–	–	IC50	3 µM
CC(C)CCCCCCCCCCCCc1cc(O)cc(O)c1	Bacillus anthracis	–	34F2	–	–	IC50	32.5 µM
CO/C1=C\C(C)=C\[C@@H](C)[C@@H](O)[C@@H](C)C/C(C)=C/C=C/[C@H](OC)[C@@H]([C@@H](C)[C@@H](O)[C@H](C)[C@@]2(O)C[C@@H](O)[C@H](C)[C@@H](C(C)C)O2)OC1=O	VSV pseudotyped with Ebola virus GP	viral entry, refers to: GFP	–	–	–	IC50	0.0149 ± 0.00893 µM
CC[C@H](C)[C@H](NC(=O)[C@H](CC(C)C)NC(=O)[C@H](Cc1c[nH]c2ccccc12)NC(=O)[C@H](CCC(N)=O)NC(=O)[C@@H](NC(=O)[C@H](Cc1ccccc1)NC(=O)[C@H](C)NC(=O)[C@H](CCCCNC(=O)COCCOCCNC(=O)COCCOCCNC(=O)CC[C@H](NC(=O)CCCCCCCCCCCCCCCCCCC(=O)O)C(=O)O)NC(=O)[C@H](CCC(N)=O)NC(=O)[C@H](C)NC(=O)[C@@H](NC(=O)[C@H](CCCCN)NC(=O)[C@H](CC(=O)O)NC(=O)[C@H](CC(C)C)NC(=O)C(C)(C)NC(=O)[C@@H](NC(=O)[C@H](CO)NC(=O)[C@H](Cc1ccc(O)cc1)NC(=O)[C@H](CC(=O)O)NC(=O)[C@H](CO)NC(=O)[C@@H](NC(=O)[C@H](Cc1ccccc1)NC(=O)[C@@H](NC(=O)CNC(=O)[C@H](CCC(=O)O)NC(=O)C(C)(C)NC(=O)[C@@H](N)Cc1ccc(O)cc1)[C@@H](C)O)[C@@H](C)O)[C@@H](C)CC)[C@@H](C)CC)C(C)C)C(=O)N[C@@H](C)C(=O)NCC(=O)NCC(=O)N1CCC[C@H]1C(=O)N[C@@H](CO)C(=O)N[C@@H](CO)C(=O)NCC(=O)N[C@@H](C)C(=O)N1CCC[C@H]1C(=O)N1CCC[C@H]1C(=O)N1CCC[C@H]1C(=O)N[C@@H](CO)C(N)=O	–	–	healthy subjects, single ascending dose	8.0 mg, titre ≥1:20	–	treatment-induced ADA positive subjects	0%
CC1=C[C@H]2O[C@@H]3C[C@H]4OC(=O)/C=C\C=C\C(=O)OCC/C(C)=C/C(=O)OC[C@@]2(CC1)[C@]4(C)[C@]31CO1	Plasmodium falciparum	parasite proliferation, SYBR Green	3D7	72 h	–	IC50	0.0024 µM
CNC(=O)[C@@H](NC(=O)[C@H](CC(C)C)[C@H](O)C(=O)NO)C(C)(C)C	human fibrinogen	SDS-PAGE	Daboia russelii	concentration not given, unit not given, with: KA venom	baseline: untreated fibrinogen	remaining fibrinogen γ chain	0.863
CC(C)(C)c1ccc(CN2CCN(C(c3ccccc3)c3ccc(Cl)cc3)CC2)cc1 (stereo not drawn)	Marburg virus	HIV/MARV pseudovirion entry	A549	48 h	–	IC50	12.7 ± 11.5 µM
CC(=O)O[C@@H]1C[C@H]2O[C@@H]3C=C(C)CC[C@]3(C)[C@]1(C)[C@]21CO1	Candida albicans	biofilm formation, XTT	SC5314	24 h, 37 °C	–	IC50	0.529 µM
CCN(CCO)CCCC(C)Nc1ccnc2cc(Cl)ccc12 (stereo not drawn)	SARS-CoV-2 Delta	viral replication	Calu-3	48 h	–	IC50	> 100 µM
Cc1cccc(CN2CCN(C(c3ccccc3)c3ccc(Cl)cc3)CC2)c1 (stereo not drawn)	Ebola virus Zaire	HIV/EBOV pseudovirion entry	A549	48 h	–	IC50	6.7 ± 1.8 µM
Cn1cc(CN2CCCC(COc3ccccc3C(=O)N3CCCCC3)C2)c2ccccc21 (stereo not drawn)	SARS-CoV-2	cytopathic effect	USA_WA1/2020	round 1, 5-point	–	maximum response	83.3%
COc1c(C)c2c(c(O)c1C/C=C(\C)CCC(=O)O)C(=O)OC2	Severe acute respiratory syndrome coronavirus	viral replication, inhibitor	Vero 76	–	–	IC50	> 30 µM
CC(=O)O[C@@H]1[C@H](N)[C@@H](OP(=O)(O)O)[C@@]2(C(=O)O)CS[C@@](O)(C(N)=O)[C@@H]1O2	DNA-directed RNA polymerase subunit beta' / DNA-directed RNA polymerase subunit beta (rpoC/rpoB, Escherichia coli, UniProt P0A8T7+P0A8V2)	binding to elongation complex, 6-MI fluorescence titration	wild-type RNAP	riboside RNA 3′-end Uracil	–	Kd	0.05 ± 0.001 µM
CC(C)CNC(=O)[C@@H](N)Cc1ccc(OP(=O)(O)CO[C@H](CO)Cn2cnc3c(N)ncnc32)cc1	cowpox virus	viral replication	–	–	–	IC50	3 µM
OCCOCCN1CCN(C(c2ccccc2)c2ccc(Cl)cc2)CC1 (stereo not drawn)	Marburg virus	HIV/MARV pseudovirion entry	A549	48 h	–	IC50	6.1 ± 2.8 µM
CC(C)(C)NC(=O)[C@@H](N)Cc1ccc(OP2(=O)CO[C@@H](Cn3ccc(N)nc3=O)CO2)cc1 (stereo partly drawn)	vaccinia virus	viral replication	–	–	–	IC50	10 µM
Nc1ncnc2c([C@@H]3N[C@H](CO)[C@@H](O)[C@H]3O)c[nH]c12	Marburg virus	–	HeLa, Musoke	0.8 µM, 1 h	–	viral RNA copies	2.58e+07 copies/mL
CC[C@H](C)[C@H](NC(=O)[C@H](CC(C)C)NC(=O)[C@H](Cc1c[nH]c2ccccc12)NC(=O)[C@H](CCC(N)=O)NC(=O)[C@@H](NC(=O)[C@H](Cc1ccccc1)NC(=O)[C@H](C)NC(=O)[C@H](CCCCNC(=O)COCCOCCNC(=O)COCCOCCNC(=O)CC[C@H](NC(=O)CCCCCCCCCCCCCCCCCCC(=O)O)C(=O)O)NC(=O)[C@H](CCC(N)=O)NC(=O)[C@H](C)NC(=O)[C@@H](NC(=O)[C@H](CCCCN)NC(=O)[C@H](CC(=O)O)NC(=O)[C@H](CC(C)C)NC(=O)C(C)(C)NC(=O)[C@@H](NC(=O)[C@H](CO)NC(=O)[C@H](Cc1ccc(O)cc1)NC(=O)[C@H](CC(=O)O)NC(=O)[C@H](CO)NC(=O)[C@@H](NC(=O)[C@H](Cc1ccccc1)NC(=O)[C@@H](NC(=O)CNC(=O)[C@H](CCC(=O)O)NC(=O)C(C)(C)NC(=O)[C@@H](N)Cc1ccc(O)cc1)[C@@H](C)O)[C@@H](C)O)[C@@H](C)CC)[C@@H](C)CC)C(C)C)C(=O)N[C@@H](C)C(=O)NCC(=O)NCC(=O)N1CCC[C@H]1C(=O)N[C@@H](CO)C(=O)N[C@@H](CO)C(=O)NCC(=O)N[C@@H](C)C(=O)N1CCC[C@H]1C(=O)N1CCC[C@H]1C(=O)N1CCC[C@H]1C(=O)N[C@@H](CO)C(N)=O	–	–	human	subcutaneous, 15.0 mg once weekly, week 23, multiple doses	–	Vz/F	7.61 L
C#CCCCOc1c2c(c(-c3ccc4c(c3)OCO4)c3cc(OC)c(OC)cc13)C(=O)OC2	VSV pseudotyped with Ebola virus GP	viral entry, refers to: GFP	–	–	–	IC50	0.0732 ± 0.0119 µM
CC(C)(C(=O)O)c1ccc(C(O)CCCN2CCC(C(O)(c3ccccc3)c3ccccc3)CC2)cc1 (stereo not drawn)	Ebola virus Zaire	HIV/EBOV pseudovirion entry	A549	48 h	–	IC50	> 100 µM
CC(Nc1nc(N2CCNCC2C)nc2ccccc12)c1ccccc1 (stereo not drawn)	SARS-CoV-2	cytopathic effect	USA_WA1/2020	retest 8-point	–	maximum response	84.4%

SMILES	target or system	assay	test system	setting	how to read	endpoint	result
N#Cc1cn([C@@H]2O[C@H](COCc3ccccc3)[C@@H](OCc3ccccc3)[C@H](OCc3ccccc3)[C@H]2I)c(=O)[nH]c1=O	Japanese encephalitis virus	viral replication, inhibitor, ELISA	Vero	–	–	IC50	4.2 µM
CCOc1ccc2cc(C(=O)Nc3nc4ccccc4[nH]3)[nH]c2c1	SARS-CoV-2 pseudovirus	viral entry	HeLa-ACE2, Delta spike	–	–	IC50	> 10 µM
CC(C)OC(=O)[C@@H](N)Cc1ccc(OP2(=O)CO[C@@H](Cn3ccc(N)nc3=O)CO2)cc1 (stereo partly drawn)	cowpox virus	viral replication	–	–	–	IC50	40 µM
CN(C)CCOC(C)(c1ccccc1)c1ccc(Cl)cc1 (stereo not drawn)	Ebola virus Zaire	HIV/EBOV pseudovirion entry	A549	48 h	–	IC50	1.1 ± 0.5 µM
CCOc1c2c(c(-c3ccc4c(c3)OCO4)c3cc(OC)c(OC)cc13)C(=O)OC2	VSV pseudotyped with Ebola virus GP	viral entry, refers to: GFP	–	–	–	IC50	0.112 ± 0.0147 µM
COC(=O)C(N)Cc1ccc(OP2(=O)COC(Cn3ccc(N)nc3=O)CO2)cc1 (stereo not drawn)	cowpox virus	viral replication	–	–	–	IC50	35 µM
Cn1cnc(Cn2c(=O)[nH]/c(=N\c3cc4cn(C)nc4cc3Cl)n(Cc3cc(F)c(F)cc3F)c2=O)n1	–	–	human, severe renal impairment, plasma	oral, 375 mg single dose, 3 h	–	unbound fraction	0.0172
CN1CCN(C(=O)c2cc3cc(Cl)ccc3[nH]2)CC1	Marburg virus	HIV/MARV pseudovirion entry	A549	48 h	–	IC50	20.6 ± 7.9 µM
O=C(NC1CCCCC1)C(c1cccs1)N(Cc1ccc2c(c1)OCO2)C(=O)Cc1c[nH]c2ccccc12 (stereo not drawn)	Rickettsia canadensis	bacterial growth	Vero	–	–	IC50	3.4 µM
COc1cc2c(O)c3c(c(-c4ccc5c(c4)OCO5)c2cc1OC)C(=O)OC3	VSV pseudotyped with Marburg virus GP	viral entry, refers to: GFP	–	–	–	IC50	1.77 ± 0.08 µM
CCc1c(C(=O)C(N)=O)c2c(OCC(=O)O)cccc2n1Cc1ccccc1	C2C12	–	–	10 µM, with: GA venom	baseline: venom alone	viability difference	17%
COc1cc2c(OC(C)=O)c3c(c(-c4ccc5c(c4)OCO5)c2cc1OC)C(=O)N(CCO)C3=O	VSV pseudotyped with Ebola virus GP	viral entry, refers to: GFP	HeLa	–	–	IC50	5.4 ± 2.92 µM
COC(=O)[C@@H](N)[C@@H](C)OP1(=O)CO[C@@H](Cn2cnc3c(N)ncnc32)CO1 (stereo partly drawn)	vaccinia virus	viral replication	–	–	–	IC50	30 µM
NC(=O)c1ncn([C@@H]2O[C@H](CO)[C@@H](O)[C@H]2O)n1	Severe acute respiratory syndrome coronavirus	viral replication, inhibitor	Vero 76	–	–	IC50	210 µM
COc1cc2c(O)c3c(c(-c4ccc5c(c4)OCO5)c2cc1OC)C(=O)N(N)C3	VSV pseudotyped with Ebola virus GP	viral entry, refers to: GFP	HeLa	–	–	IC50	3.94 ± 0.604 µM
CCOCOC[C@H](C[C@H](C)C(=O)NO)NC(=O)c1ccc(Oc2ccccc2)cc1	SARS-CoV-2 pseudovirus	viral entry	HeLa-ACE2, Delta spike	–	–	IC50	> 10 µM
COc1cc2c(OCCCN3CCN(CCO)CC3)c3c(c(-c4ccc5c(c4)OCO5)c2cc1OC)C(=O)OC3	VSV pseudotyped with Ebola virus GP	viral entry, refers to: GFP	–	–	–	IC50	0.0762 ± 0.0146 µM
Nc1ccn(C[C@@H](CO)OCP(=O)(O)O)c(=O)n1	vaccinia virus	viral replication	–	–	–	IC50	20 µM
CNCCOC(c1ccccc1)c1ccccc1	Marburg marburgvirus	viral entry	–	HIV pseudovirions with MARV glycoprotein	–	IC50	42.5 ± 14.9 µM
Cc1cccc(NC(=O)CS(=O)(=O)c2nc(-c3ccccc3)cn2-c2ccc(Cl)cc2)c1C	VSVΔG pseudotyped with SARS-CoV-2 S	pseudovirus infection	Delta	tested range 0.3125 to 40 µM	–	IC50	0.49 µM
COC(=O)[C@@H](N)Cc1ccc(OP2(=O)CO[C@@H](Cn3cnc4c(N)ncnc43)CO2)cc1 (stereo partly drawn)	vaccinia virus	viral replication	–	–	–	IC50	2 µM and 3 µM
C#Cc1c(C(N)=O)ncn1[C@@H]1O[C@H](CO)[C@@H](O)[C@H]1O	Severe acute respiratory syndrome coronavirus	viral replication, inhibitor	Vero 76	–	–	IC50	> 40 µM
CN1CCN(C(c2ccccc2)c2ccc(Cl)cc2)CC1 (stereo not drawn)	Marburg virus	HIV/MARV pseudovirion entry	A549	48 h	–	IC50	4.6 ± 0.1 µM
O=c1[nH]c(Nc2cc(Cl)cc(Cl)c2)nc2cc(Cl)ccc12	Middle East respiratory syndrome-related coronavirus	viral replication	Vero	–	–	IC50	< 1.1 µM
CCC(CCCCCCCCCCc1cc(O)cc(O)c1)C(C)C (stereo not drawn)	Bacillus anthracis	–	34F2	–	–	IC50	15.6 µM

Repeated from above:
SMILES	target or system	assay	test system	setting	how to read	endpoint	result
CC(C)OC(=O)[C@@H](N)Cc1ccc(OP2(=O)CO[C@@H](Cn3ccc(N)nc3=O)CO2)cc1 (stereo partly drawn)	cowpox virus	viral replication	–	–	–	IC50	40 µM
CN(C)CCOC(C)(c1ccccc1)c1ccc(Cl)cc1 (stereo not drawn)	Ebola virus Zaire	HIV/EBOV pseudovirion entry	A549	48 h	–	IC50	1.1 ± 0.5 µM
CCOc1c2c(c(-c3ccc4c(c3)OCO4)c3cc(OC)c(OC)cc13)C(=O)OC2	VSV pseudotyped with Ebola virus GP	viral entry, refers to: GFP	–	–	–	IC50	0.112 ± 0.0147 µM
